# Experimental data from different studies.
# Every numbered part comes from another study and shows a few of its results, in no order.
# Sequence of UniProt P29320 (whole entry, looked up): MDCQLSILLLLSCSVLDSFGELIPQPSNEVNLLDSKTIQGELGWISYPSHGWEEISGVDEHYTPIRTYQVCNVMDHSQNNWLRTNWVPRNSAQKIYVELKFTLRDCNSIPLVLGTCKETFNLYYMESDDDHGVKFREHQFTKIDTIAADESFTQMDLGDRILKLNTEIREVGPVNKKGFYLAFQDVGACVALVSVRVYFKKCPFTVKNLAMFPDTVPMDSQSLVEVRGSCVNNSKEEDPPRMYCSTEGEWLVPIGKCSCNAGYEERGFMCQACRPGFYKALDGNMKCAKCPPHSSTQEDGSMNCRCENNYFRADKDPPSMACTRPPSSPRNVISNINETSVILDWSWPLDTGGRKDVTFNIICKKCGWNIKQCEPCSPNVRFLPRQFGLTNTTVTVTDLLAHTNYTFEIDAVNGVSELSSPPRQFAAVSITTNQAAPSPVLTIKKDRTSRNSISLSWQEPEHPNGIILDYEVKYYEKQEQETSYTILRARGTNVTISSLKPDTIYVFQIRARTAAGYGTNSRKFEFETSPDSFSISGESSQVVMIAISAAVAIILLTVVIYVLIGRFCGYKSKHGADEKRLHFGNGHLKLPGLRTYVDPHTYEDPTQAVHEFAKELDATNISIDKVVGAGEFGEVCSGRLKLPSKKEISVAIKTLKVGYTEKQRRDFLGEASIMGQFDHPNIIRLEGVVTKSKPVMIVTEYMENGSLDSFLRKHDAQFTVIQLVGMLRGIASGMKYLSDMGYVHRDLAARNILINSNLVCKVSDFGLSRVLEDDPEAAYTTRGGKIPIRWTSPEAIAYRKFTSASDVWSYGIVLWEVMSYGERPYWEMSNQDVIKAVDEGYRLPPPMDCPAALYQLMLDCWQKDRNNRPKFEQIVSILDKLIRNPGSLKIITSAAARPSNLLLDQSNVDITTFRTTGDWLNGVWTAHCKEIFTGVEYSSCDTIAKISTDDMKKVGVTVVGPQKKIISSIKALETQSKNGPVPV
# Sequence of UniProt P35590 (whole entry, looked up): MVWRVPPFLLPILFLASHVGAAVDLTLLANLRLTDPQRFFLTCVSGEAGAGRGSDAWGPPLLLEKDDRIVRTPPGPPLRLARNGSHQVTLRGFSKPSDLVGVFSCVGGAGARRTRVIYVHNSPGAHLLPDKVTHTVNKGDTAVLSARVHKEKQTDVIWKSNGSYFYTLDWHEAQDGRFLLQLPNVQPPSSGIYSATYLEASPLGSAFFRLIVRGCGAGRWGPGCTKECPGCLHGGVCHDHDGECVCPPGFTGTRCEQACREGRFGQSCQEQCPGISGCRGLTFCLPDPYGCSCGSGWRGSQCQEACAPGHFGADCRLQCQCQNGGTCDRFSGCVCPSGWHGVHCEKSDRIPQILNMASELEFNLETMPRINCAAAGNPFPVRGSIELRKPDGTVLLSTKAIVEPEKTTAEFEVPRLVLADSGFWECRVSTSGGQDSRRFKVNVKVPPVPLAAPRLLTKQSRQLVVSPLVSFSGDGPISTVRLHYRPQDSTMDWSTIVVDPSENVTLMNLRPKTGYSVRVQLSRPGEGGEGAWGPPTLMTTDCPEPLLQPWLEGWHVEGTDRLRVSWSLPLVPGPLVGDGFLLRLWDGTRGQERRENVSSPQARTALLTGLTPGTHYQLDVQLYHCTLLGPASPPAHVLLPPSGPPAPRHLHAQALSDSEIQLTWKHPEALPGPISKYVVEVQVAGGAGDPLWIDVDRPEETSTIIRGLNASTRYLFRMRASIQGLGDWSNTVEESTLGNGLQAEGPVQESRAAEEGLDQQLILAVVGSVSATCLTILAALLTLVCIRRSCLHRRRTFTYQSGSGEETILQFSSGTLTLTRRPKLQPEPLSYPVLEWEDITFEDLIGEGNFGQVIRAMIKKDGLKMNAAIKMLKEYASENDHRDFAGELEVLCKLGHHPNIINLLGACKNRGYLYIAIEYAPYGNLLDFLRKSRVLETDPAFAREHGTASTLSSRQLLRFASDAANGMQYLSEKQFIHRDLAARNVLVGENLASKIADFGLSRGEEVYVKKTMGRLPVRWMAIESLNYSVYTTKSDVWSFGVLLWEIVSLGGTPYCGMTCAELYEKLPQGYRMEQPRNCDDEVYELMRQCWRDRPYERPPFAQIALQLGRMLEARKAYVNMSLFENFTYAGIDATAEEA
# Sequence of UniProt P36897 (whole entry, looked up): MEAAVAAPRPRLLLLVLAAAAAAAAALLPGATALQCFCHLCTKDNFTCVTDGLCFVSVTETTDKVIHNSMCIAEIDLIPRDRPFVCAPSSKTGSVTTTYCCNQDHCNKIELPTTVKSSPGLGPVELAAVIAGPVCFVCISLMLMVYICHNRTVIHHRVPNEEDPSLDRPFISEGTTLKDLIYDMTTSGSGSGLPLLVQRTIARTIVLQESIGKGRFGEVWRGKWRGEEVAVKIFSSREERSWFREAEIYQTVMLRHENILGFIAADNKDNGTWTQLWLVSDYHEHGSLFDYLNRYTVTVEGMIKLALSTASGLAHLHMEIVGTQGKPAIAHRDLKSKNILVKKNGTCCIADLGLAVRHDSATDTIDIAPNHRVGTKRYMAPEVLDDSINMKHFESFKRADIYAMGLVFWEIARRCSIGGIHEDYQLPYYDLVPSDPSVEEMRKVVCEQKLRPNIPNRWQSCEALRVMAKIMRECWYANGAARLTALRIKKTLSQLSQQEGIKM
# Sequence of UniProt Q12851 (whole entry, looked up): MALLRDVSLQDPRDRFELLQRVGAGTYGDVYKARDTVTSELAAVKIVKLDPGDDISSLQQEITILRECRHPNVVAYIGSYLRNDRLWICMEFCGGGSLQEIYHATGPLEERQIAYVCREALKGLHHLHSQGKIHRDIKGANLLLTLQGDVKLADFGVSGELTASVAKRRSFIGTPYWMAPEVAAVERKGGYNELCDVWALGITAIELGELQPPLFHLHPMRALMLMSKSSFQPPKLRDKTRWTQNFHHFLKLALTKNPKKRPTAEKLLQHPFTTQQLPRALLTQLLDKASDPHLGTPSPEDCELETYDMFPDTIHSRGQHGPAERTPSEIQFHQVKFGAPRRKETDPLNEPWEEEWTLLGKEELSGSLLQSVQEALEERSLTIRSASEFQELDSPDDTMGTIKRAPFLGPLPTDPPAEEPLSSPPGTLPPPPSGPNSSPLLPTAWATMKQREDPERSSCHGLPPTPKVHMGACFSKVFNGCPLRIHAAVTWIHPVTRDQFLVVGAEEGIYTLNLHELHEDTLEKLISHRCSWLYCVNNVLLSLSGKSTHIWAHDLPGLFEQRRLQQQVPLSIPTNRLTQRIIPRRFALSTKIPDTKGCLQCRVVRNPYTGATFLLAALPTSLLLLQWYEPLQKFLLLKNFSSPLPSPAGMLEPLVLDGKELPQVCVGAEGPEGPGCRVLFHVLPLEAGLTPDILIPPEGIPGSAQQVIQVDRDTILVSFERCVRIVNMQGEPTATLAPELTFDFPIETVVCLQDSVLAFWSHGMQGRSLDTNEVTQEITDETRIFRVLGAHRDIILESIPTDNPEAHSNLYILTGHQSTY
# Sequence of UniProt Q04771 (whole entry, looked up): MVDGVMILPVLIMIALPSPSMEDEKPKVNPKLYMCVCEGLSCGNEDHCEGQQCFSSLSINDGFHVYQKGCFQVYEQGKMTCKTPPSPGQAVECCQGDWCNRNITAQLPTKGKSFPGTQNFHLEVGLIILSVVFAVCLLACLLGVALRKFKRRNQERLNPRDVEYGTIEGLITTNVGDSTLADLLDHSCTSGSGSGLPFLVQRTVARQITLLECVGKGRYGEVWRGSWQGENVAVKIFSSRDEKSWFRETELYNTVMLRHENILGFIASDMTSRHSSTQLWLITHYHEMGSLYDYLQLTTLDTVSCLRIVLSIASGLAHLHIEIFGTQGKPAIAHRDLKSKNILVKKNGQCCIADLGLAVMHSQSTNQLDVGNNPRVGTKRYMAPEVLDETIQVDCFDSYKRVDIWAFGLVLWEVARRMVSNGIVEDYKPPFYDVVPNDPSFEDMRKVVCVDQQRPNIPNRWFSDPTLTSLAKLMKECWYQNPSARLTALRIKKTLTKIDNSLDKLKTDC
# Sequence of UniProt Q00536 (whole entry, looked up): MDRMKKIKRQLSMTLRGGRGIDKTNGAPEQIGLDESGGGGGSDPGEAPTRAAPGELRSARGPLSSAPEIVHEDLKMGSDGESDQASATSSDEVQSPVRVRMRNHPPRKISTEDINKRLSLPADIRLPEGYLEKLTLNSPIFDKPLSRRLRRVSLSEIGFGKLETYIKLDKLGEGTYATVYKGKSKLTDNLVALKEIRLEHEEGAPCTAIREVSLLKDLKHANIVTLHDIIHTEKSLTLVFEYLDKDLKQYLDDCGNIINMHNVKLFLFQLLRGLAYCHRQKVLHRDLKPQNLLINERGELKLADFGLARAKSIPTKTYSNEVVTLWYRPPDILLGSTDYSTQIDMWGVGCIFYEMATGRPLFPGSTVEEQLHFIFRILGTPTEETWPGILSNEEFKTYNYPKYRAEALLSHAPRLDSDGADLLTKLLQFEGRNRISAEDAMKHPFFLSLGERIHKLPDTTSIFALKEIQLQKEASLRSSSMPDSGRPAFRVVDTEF
# Sequence of UniProt O43353 (whole entry, looked up): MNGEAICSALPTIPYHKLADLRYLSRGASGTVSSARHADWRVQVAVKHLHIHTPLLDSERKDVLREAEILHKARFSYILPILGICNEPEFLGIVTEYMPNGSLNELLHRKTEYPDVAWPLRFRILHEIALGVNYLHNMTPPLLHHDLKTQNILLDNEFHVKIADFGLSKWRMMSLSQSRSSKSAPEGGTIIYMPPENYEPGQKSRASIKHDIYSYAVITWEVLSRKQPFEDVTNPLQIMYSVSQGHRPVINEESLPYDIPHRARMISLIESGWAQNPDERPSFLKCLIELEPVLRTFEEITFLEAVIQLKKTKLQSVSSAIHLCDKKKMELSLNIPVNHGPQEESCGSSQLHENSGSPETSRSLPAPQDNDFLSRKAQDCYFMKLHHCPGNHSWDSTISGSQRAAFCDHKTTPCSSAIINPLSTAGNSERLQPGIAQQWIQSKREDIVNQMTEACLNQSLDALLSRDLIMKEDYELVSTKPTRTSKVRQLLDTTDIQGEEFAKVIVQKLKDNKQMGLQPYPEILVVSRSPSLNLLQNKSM

# Series 1
# Structure (SMILES): [2H]c1c([2H])c([C@]2([2H])CCCN2C(=O)C(C)(C)Oc2ccc3cn[nH]c3c2)c([2H])c([2H])c1C([2H])([2H])[2H]
# Read-out: binding
# Technique: competition with immobilised ligand
# Concentration: 1 µM
target,remaining binding [%]
"Ephrin type-A receptor 3 (EPHA3, Homo sapiens, UniProt P29320)",81
"Fibroblast growth factor receptor 2 (FGFR2, Homo sapiens, UniProt P21802)",89
"Phosphatidylinositol 4,5-bisphosphate 3-kinase catalytic subunit alpha isoform (PIK3CA, Homo sapiens, UniProt P42336)",67
"Receptor-interacting serine/threonine-protein kinase 2 (RIPK2, Homo sapiens, UniProt O43353)",61
"Activin receptor type-1 (ACVR1, Homo sapiens, UniProt Q04771)",74

# Other studies, line by line
Structure (SMILES),target,test,conditions,measurement,result
COc1cc(-c2cncc3c2CN(C)Cc2cc(N4CCNCC4)ccc2-3)cc(OC)c1OC,"Cyclin-dependent kinase 16, with cyclin Y (CDK16, Homo sapiens, UniProt Q00536)","enzyme activity, inhibitor",1 µM,remaining activity,110%
C=CC(=O)N1CCC(COCC(=O)N2CCN(c3nc(-c4cnc(N)nc4C(F)F)nc(N4CCOC[C@@H]4C)n3)CC2)CC1,"Ephrin type-A receptor 3 (EPHA3, Homo sapiens, UniProt P29320)","binding, competition with immobilised ligand",1 µM,remaining binding,94%
Cc1cc([C@@H](C)Nc2ccccc2C(=O)O)c2nc(N3CCC(F)(F)CC3)c(C#N)c(=O)n2c1,"TGF-beta receptor type-1 (TGFBR1, Homo sapiens, UniProt P36897)","binding, competition with immobilised ligand",10 µM,remaining binding,92%
CCCCC(=O)Nc1ccc(-c2ccc3ncn(CCC)c(=O)c3c2)cn1,"Tyrosine-protein kinase receptor Tie-1 (TIE1, Homo sapiens, UniProt P35590)","binding, competition with immobilised ligand",0.5 µM,remaining binding,100%
C1=C/COCc2cc(ccc2OCCN2CCCC2)Nc2nccc(n2)-c2cccc(c2)COC/1,"Mitogen-activated protein kinase kinase kinase kinase 2 (MAP4K2, Homo sapiens, UniProt Q12851)",binding,0.1 µM,remaining binding,20%

# A few entries again (series 1):
target,remaining binding [%]
"Ephrin type-A receptor 3 (EPHA3, Homo sapiens, UniProt P29320)",81
